Experimental data from different studies.
Each line is one published result; not all experiments were run side by side. ± gives the spread as reported.
Cell line: A549

Under “number of regulated genes”, ClCc1ccnc(-c2cc(CCl)ccn2)c1.F[P-](F)(F)(F)(F)F.[Ir+3].[c-]1ccccc1-c1ccccn1.[c-]1ccccc1-c1ccccn1 is recorded as 1220 (microarray; 3 µM, 24 h, fold change above 2).
COc1cc(C2=CCCc3c2ccc(OC)c3OCc2ccc([N+](=O)[O-])cc2)cc(OC)c1OC has an IC50 of 0.13 ± 0.02 µM (4 h, anoxic).
CC(C)c1ccc(/C=C2\N=C(SCC(=O)O)N(c3ccccc3)C2=O)cc1 has a selectivity index of 1.3 (MTT; baseline: BJ1 over A549).
Under “cells in G2/M phase”, COc1ccc2c(c1)NC(=O)CN2c1nc(C)nc2ccccc12 is recorded as 21.9% (flow cytometry; 0.001 µM, 24 h).
CCCN1CCN(c2ccc3nc(-c4ccc5nc(-c6cc(OC)ccc6OC)[nH]c5c4)[nH]c3c2)CC1 has a growth percent of 115% (SRB; 10 µM, 48 h).
The TGI of [Br-].c1ccc2cc(Cn3c[n+](Cc4ccc5ccccc5c4)c4ccccc43)ccc2c1 is reported as 3.88 µM (NCI60 five-dose).
COc1ccc2c(c1NC(=O)OCc1ccc([N+](=O)[O-])s1)CCC=C2c1cc(OC)c(OC)c(OC)c1 gave an IC50 of 10.1 ± 6.35 µM (cell growth, SRB; 4 h exposure then 120 h oxic, oxic exposure then drug removal).
COc1cccc2c1C(=O)c1c(O)c3c(c(O)c1C2=O)C[C@@](O)(C(=O)CO)C[C@@H]3O[C@H]1C[C@H](N)[C@H](O)[C@H](C)O1 has an EC50 of 4.62 µM (cell viability, MTT; 48 h).
CCN(CC)c1ccc(C=NNC(=O)CSc2nc3ccccc3c(=O)n2Cc2ccc(S(N)(=O)=O)cc2)c(O)c1 has a TGI of > 100 µM (NCI five-dose screen).
The selectivity index of Cc1cc(NS(=O)(=O)c2ccc(NC(=O)/C(C#N)=C/c3ccncc3)cc2)no1 is reported as > 1.02 (cytotoxicity, MTT; baseline: HSF over A549 IC50).
The selectivity index of COc1c(C)c(OC)c(C(=O)/C=C/c2ccccc2)c(OC)c1C is reported as 0.82 (baseline: CL over A549).
For Nc1nc(N)c2nc(CNc3ccc(C(=O)NCCc4ccccc4)cc3)cnc2n1, the cell growth was 110 ± 18.7% (CellTiter-Glo; 10 µM; 100 none, 0 cytostatic, -100 cytotoxic).
For COc1cc(C2=CCCc3c2ccc(OC)c3OC(C)(C)c2ccc([N+](=O)[O-])s2)cc(OC)c1OC, the IC50 was 0.18 ± 0.006 µM (4 h, anoxic).
With CCOC(=O)C1CCN(C(=O)c2ccc(N(CC)Cc3cnc4nc(N)nc(N)c4n3)cc2)CC1 the cell growth was 11.4 ± 11.3% (CellTiter-Glo; 10 µM; 100 none, 0 cytostatic, -100 cytotoxic).
For COc1ccc2c(c1NC(=O)OCc1ncc([N+](=O)[O-])n1C)CCC=C2c1cc(OC)c(OC)c(OC)c1, the IC50 was > 93 µM (4 h, anoxic).
COc1cc2ncnc(Cc3cccc(-c4cccnc4)c3)c2cc1OC gave an inhibition of 8% (mitochondrial oxygen consumption, Seahorse XF96; 10 µM).
For CCCCN1CCN(c2ccc3[nH]c(-c4ccc5[nH]c(-c6ccc(C(F)(F)F)cc6)nc5c4)nc3c2)CC1, the growth percent was -71.9% (SRB; 10 µM, 48 h).
C/C(=N\O)c1ccc(-c2ccc(O)c(C)c2)c(Cl)c1O has a 2-NBDG uptake of 33% (fluorescence imaging; 30 µM, added: 50 µM 2-NBDG, 15 min; baseline: DMSO).
COc1ccc2c(Cc3ccc(OC)c(OC)c3)ccnc2c1 has an inhibition of 13% (mitochondrial oxygen consumption, Seahorse XF96; 10 µM).
Cc1nc(N(Cc2ccccc2)c2ccc3c(c2)/C(=C/c2ccccc2)C(=O)N3Cc2ccccc2)c2ccccc2n1 (mixture of isomers): “wound healing rate” 39.1% (0.3 µM, 24 h).
The inhibition of COc1ccc2ccnc(Cc3cccc(-c4ccccc4)c3)c2c1 is reported as 0% (mitochondrial oxygen consumption, Seahorse XF96; 10 µM).
For Nc1nc(N)c2nc(C(=O)NCc3ccccc3)cnc2n1, the cell growth was 125 ± 11.9% (CellTiter-Glo; 10 µM; 100 none, 0 cytostatic, -100 cytotoxic).
With COc1cc(C2=CCCc3c2ccc(OC)c3OCc2ccc([N+](=O)[O-])o2)cc(OC)c1OC the IC50 was 0.02 ± 0.008 µM (cell growth, SRB; 4 h exposure then 120 h oxic, oxic exposure then drug removal).
O=C(NOC[C@H](O)CO)c1ccc(F)c(F)c1Nc1ccc(I)cc1F gave a viability of 32.4% (10 µM, 72 h).
With CCCN1CCN(c2ccc3[nH]c(-c4ccc5[nH]c(-c6cc(OC)c(OC)c(OC)c6)nc5c4)nc3c2)CC1 the growth percent was 106% (SRB; 10 µM, 48 h).
With Cc1cc(=O)[nH]c(=O)n1Cc1cn(-c2cc3ccccc3oc2=O)nn1 the growth was 98.1% (NCI60 single dose; 10 µM).
COc1c(C)c(OC(=O)c2ccccc2)c(C)c(O)c1C(=O)/C=C/c1ccccc1 has a selectivity index of > 1.21 (baseline: CL over A549).
For CCCc1n(Cc2ccc3ccccc3c2)c2ccccc2[n+]1Cc1ccc2ccccc2c1.[Br-], the TGI was 2.04 µM (NCI60 five-dose).
Nc1nc(N)c2nc(C(=O)NCc3cccc(C(F)(F)F)c3)cnc2n1 gave a cell growth of 125 ± 6.54% (CellTiter-Glo; 10 µM; 100 none, 0 cytostatic, -100 cytotoxic).
For O=C(/C=C/C=C/C=C/C1CCCCC1)NC1=C[C@@](O)(/C=C/C=C/C=C/C(=O)NC2=C(O)CCC2=O)[C@@H]2O[C@@H]2C1=O, the GI50 was > 30 µM (cell growth, CellTiter-Glo; 78 h).
The inhibition of c1ccc(-c2cccc(Cc3ccnc4ccccc34)c2)cc1 is reported as 93% (mitochondrial oxygen consumption, Seahorse XF96; 10 µM).
The viability of Cn1cnc2c(F)c(Nc3ccc(Br)cc3F)c(C(=O)NOCCO)cc21 is reported as 75.9% (0.625 µM, 72 h).
The cell growth of CCOC(=O)C1CCN(C(=O)c2ccc(N(C)Cc3cnc4nc(N)nc(N)c4n3)cc2)CC1 is reported as 7.47 ± 7.5% (CellTiter-Glo; 10 µM; 100 none, 0 cytostatic, -100 cytotoxic).
For COc1ccc(Cc2nccc3cc(OC)c(OC)cc23)cc1OC, the inhibition was 49% (mitochondrial oxygen consumption, Seahorse XF96; 10 µM).
CCCC(CCC)C(=O)OCc1cn(-c2c3ccccc3nc3ccccc23)nn1 has a growth of 99.4% (NCI60 single dose; 10 µM).
COc1cc2ccnc(C(=O)c3cccc4ccccc34)c2cc1OC gave an inhibition of 16% (mitochondrial oxygen consumption, Seahorse XF96; 10 µM).
CCCN1CCN(c2ccc3[nH]c(-c4ccc5[nH]c(-c6ccc(C(F)(F)F)cc6)nc5c4)nc3c2)CC1 has a growth percent of -65.1% (SRB; 10 µM, 48 h).
The inhibition of c1ccc(-c2cccc(Cc3ccnc4cc(C5COC5)ccc34)c2)cc1 is reported as 22% (mitochondrial oxygen consumption, Seahorse XF96; 10 µM).
CCn1cc(-c2cc(Cn3ccoc3=N)cc3c2CCN([C@@H](C)c2cc(OC)ccn2)C3=O)c(C(F)(F)F)n1 gave an EC50 of > 30 µM (cell growth, inhibitor; 120 h).
The inhibition of COc1ccc2c(Cc3ccc(OC)c(OC)c3)ncnc2c1 is reported as 29% (mitochondrial oxygen consumption, Seahorse XF96; 10 µM).
The selectivity index of O=c1[nH]cc(F)c(=O)[nH]1 is reported as 1.81 (cytotoxicity, MTT; baseline: HSF over A549 IC50).

Some of these lines once more:
CCn1cc(-c2cc(Cn3ccoc3=N)cc3c2CCN([C@@H](C)c2cc(OC)ccn2)C3=O)c(C(F)(F)F)n1 gave an EC50 of > 30 µM (cell growth, inhibitor; 120 h).
COc1cc2ccnc(C(=O)c3cccc4ccccc34)c2cc1OC gave an inhibition of 16% (mitochondrial oxygen consumption, Seahorse XF96; 10 µM).
O=C(NOC[C@H](O)CO)c1ccc(F)c(F)c1Nc1ccc(I)cc1F gave a viability of 32.4% (10 µM, 72 h).
COc1ccc2c(c1NC(=O)OCc1ccc([N+](=O)[O-])s1)CCC=C2c1cc(OC)c(OC)c(OC)c1 gave an IC50 of 10.1 ± 6.35 µM (cell growth, SRB; 4 h exposure then 120 h oxic, oxic exposure then drug removal).
CC(C)c1ccc(/C=C2\N=C(SCC(=O)O)N(c3ccccc3)C2=O)cc1 has a selectivity index of 1.3 (MTT; baseline: BJ1 over A549).
